{"data": "Measured values collected from several papers", "rep main protease": "Replicase polyprotein 1ab, main protease (rep, Severe acute respiratory syndrome coronavirus 2, UniProt P0DTD1)", "Spike glycoprotein": "Spike glycoprotein (Severe acute respiratory syndrome coronavirus 2, UniProt P0DTC2)", "note": "Lines come from different studies, so protocols differ. ± gives the spread as reported."}
{"SMILES": "CC(C)C[C@H](CC(=O)NO)C(=O)N[C@@H](Cc1ccc2ccccc2c1)C(=O)N[C@@H](C)C(=O)NCCN", "target": "rep main protease", "test": "viral replication, mKate2 reporter", "test system": "SARS-CoV-2", "setting": "20 µM", "endpoint": "inhibition", "result": "-0.935%"}
{"SMILES": "C=C1C[C@@]23CC[C@H]4[C@@](C)(CCC[C@@]4(C)C(=O)O[C@@H]4O[C@H](CO)[C@@H](O)[C@H](O)[C@H]4O)[C@@H]2CC[C@]1(O[C@@H]1O[C@H](CO)[C@@H](O)[C@H](O)[C@H]1O)C3", "target": "Spike glycoprotein", "test": "binding, BLI", "endpoint": "kon", "result": "101000 M⁻¹ s⁻¹"}
{"SMILES": "Cc1cncc(CC(=O)N2CC3(CC[C@H](CNC(=O)[C@@]4(O)CCc5ccccc5C4)O3)C2)c1", "target": "rep main protease", "test": "enzyme activity, inhibitor", "setting": "5 µM, mean of runs", "endpoint": "inhibition", "result": "13.5%"}
{"SMILES": "Nc1cc(O[C@@H]2CCN(C(=O)c3ccc(S(=O)(=O)F)cc3)C2)ccn1", "target": "cya (Bacillus anthracis, UniProt P40136)", "endpoint": "kinact", "result": "0.000133 s⁻¹"}
{"SMILES": "C[C@H](CCC(=O)NCCS(=O)(=O)[O-])[C@H]1CC[C@H]2[C@@H]3[C@@H](O)C[C@@H]4C[C@H](O)CC[C@]4(C)[C@H]3CC[C@]12C.[Na+]", "target": "rep main protease", "test": "reporter gene (mKate2), inhibitor", "setting": "20 µM", "endpoint": "inhibition", "result": "-0.556%"}
{"SMILES": "CC[C@H](C)[C@H](NC(=O)[C@H](Cc1c[nH]cn1)NC(=O)[C@H](CO)NC(=O)CNC(=O)[C@H](CCC(=O)O)NC(=O)[C@H](CCSC)NC(=O)[C@@H](NC(=O)[C@H](Cc1c[nH]cn1)NC(=O)[C@H](CO)NC(=O)[C@H](CCSC)NC(=O)[C@H](C)NC(=O)[C@H](CC(N)=O)NC(C)=O)C(C)C)C(=O)N[C@@H](CC(N)=O)C(=O)N[C@@H](Cc1c[nH]c2ccccc12)C(=O)N[C@@H](CC(=O)O)C(=O)N[C@@H](C)C(N)=O", "target": "Polyprotein P1234, nsP2 protease domain (Chikungunya virus, UniProt Q8JUX6)", "test": "binding, phage display", "scale": "direction not given", "endpoint": "enrichment score", "result": 136}
{"SMILES": "CC(C)n1cc(C(=O)NC2CCCc3c2[nH]c2ccccc32)c2ccccc2c1=O (centres unmarked)", "target": "Replicase polyprotein 1ab, nsp14 N7-methyltransferase (rep, Severe acute respiratory syndrome coronavirus 2, UniProt P0DTD1)", "test": "N7-methyltransferase activity, inhibitor, Py-FLINT", "endpoint": "Hill slope", "result": "1.74 ± 0.16"}
{"SMILES": "O=C(NC[C@@H]1CC2(CCC2)CN1C(=O)c1ccc(F)c(O)c1)c1cncc2ccccc12", "target": "rep main protease", "test": "enzyme activity, inhibitor", "setting": "5 µM, run 2", "endpoint": "inhibition", "result": "27.4%"}
{"SMILES": "COc1c(/C=C/C(=O)c2ccc(O)cc2)ccc(O)c1O", "target": "Spike glycoprotein", "test": "binding, biolayer interferometry", "endpoint": "koff", "result": "0.0134 s⁻¹"}
{"SMILES": "C[C@@H]1Cc2ccc(C(=O)N[C@@H](Cc3ccccc3)C(=O)O)c(O)c2C(=O)O1", "target": "porcine pancreatic lipase", "test": "substrate, HPLC fluorescence", "setting": "pH 7.5, 37 °C, Km above tested range", "endpoint": "Km", "result": "1.08 mM"}
{"SMILES": "Cl.NCCc1ccc(S(=O)(=O)F)cc1", "target": "rep main protease", "test": "reporter gene (mKate2), inhibitor", "setting": "20 µM", "endpoint": "inhibition", "result": "-0.475%"}
{"SMILES": "O=C(Cc1cccnc1)N1CCC[C@H]([C@H]2CCN(C(=O)C3=CO[C@H]4C=CC(F)=CC4=C3)C2)C1", "target": "rep main protease", "test": "enzyme activity, inhibitor", "setting": "5 µM, mean of runs", "endpoint": "inhibition", "result": "15.9%"}
{"SMILES": "CC1=CC(=O)[C@@H](O)[C@]2(C)[C@H]3[C@@H](O)[C@H](O)[C@@]4(C)OC[C@@]35[C@@H](C[C@@H]12)OC(=O)[C@H](O)[C@]54O", "target": "rep main protease", "test": "reporter gene (Gaussia luciferase), inhibitor", "setting": "20 µM", "endpoint": "inhibition", "result": "-6.12%"}
{"SMILES": "Cc1nc(C(=O)N2CC[C@H](N[C@@H]3N=C(c4ccccc4)Nc4ccccc43)C2)cc(=O)[nH]1", "target": "rep main protease", "test": "enzyme activity, inhibitor", "setting": "5 µM, run 1", "endpoint": "inhibition", "result": "8.2%"}
{"note": "A few entries again:"}
{"SMILES": "CC[C@H](C)[C@H](NC(=O)[C@H](Cc1c[nH]cn1)NC(=O)[C@H](CO)NC(=O)CNC(=O)[C@H](CCC(=O)O)NC(=O)[C@H](CCSC)NC(=O)[C@@H](NC(=O)[C@H](Cc1c[nH]cn1)NC(=O)[C@H](CO)NC(=O)[C@H](CCSC)NC(=O)[C@H](C)NC(=O)[C@H](CC(N)=O)NC(C)=O)C(C)C)C(=O)N[C@@H](CC(N)=O)C(=O)N[C@@H](Cc1c[nH]c2ccccc12)C(=O)N[C@@H](CC(=O)O)C(=O)N[C@@H](C)C(N)=O", "target": "Polyprotein P1234, nsP2 protease domain (Chikungunya virus, UniProt Q8JUX6)", "test": "binding, phage display", "scale": "direction not given", "endpoint": "enrichment score", "result": 136}
{"SMILES": "CC(C)n1cc(C(=O)NC2CCCc3c2[nH]c2ccccc32)c2ccccc2c1=O (centres unmarked)", "target": "Replicase polyprotein 1ab, nsp14 N7-methyltransferase (rep, Severe acute respiratory syndrome coronavirus 2, UniProt P0DTD1)", "test": "N7-methyltransferase activity, inhibitor, Py-FLINT", "endpoint": "Hill slope", "result": "1.74 ± 0.16"}
